# Results gathered from unrelated publications.
# Each line is one published result; not all experiments were run side by side. Several values in a cell are separate wells, animals, samples, runs or records.
# Technique: steady-state kinetics
# B1: SLC10A2 (Homo sapiens, UniProt Q12908); chain MNDPNSCVDNATVCSGASCVVPESNFNNILSVVLSTVLTILLALVMFSMGCNVEIKKFLGHIKRPWGICVGFLCQFGIMPLTGFILSVAFDILPLQAVVVLIIGCCPGGTASNILAYWVDGDMDLSVSMTTCSTLLALGMMPLCLLIYTKMWVDSGSIVIPYDNIGTSLVSLVVPVSIGMFVNHKWPQKAKIILKIGSIAGAILIVLIAVVGGILYQSAWIIAPKLWIIGTIFPVAGYSLGFLLARIAGLPWYRCRTVAFETGMQNTQLCSTIVQLSFTPEELNVVFTFPLIYSIFQLAFAAIFLGFYVAYKKCHGKNKAEIPESKENGTEPESSFYKANGGFQPDEK
# B2: enzyme R237K (Acetivibrio thermocellus, UniProt A3DJ38); chain MKLTIPELSLVVLIGSSGSGKSTFAKKHFKPTEVISSDFCRGLVSDDENDQTVTGAAFDVLHYIVSKRLQLGKLTVVDATNVQESARKPLIEIAKDYHCFPVAVVFNLPEKVCQERNKNRTDRQVEEYVIRKHTQQLKKSIKGLQREGFRYVYILNSPEEVEEVVFERQPLWNNKKDEHGPFDIIGDIHGCYDELKMLLEKLGYLIEEVEGGVGSGKYRVTHPEGRKVLFLGDLVDKGPKITEVLKLVMGMVKSGIALCVPGNHDVKLLRKLNGRDVQITHGLDRTLEQLAKEPQEFIEEVKAFIDGLVSHYVLDDGKLVVAHAGMKEEFQGRGSGKVREFALYGETTGETDEYGLPVRYDWASDYRGKALVVYGHTPQAEVLKVNNTINIDTGCVFGGKLTAYRYPEREIVDVKALKTYYEPAKPFLPKEDMAERFEARTDNDILDINDVLGKKIITTRLMSSITIHEENSIAALEVMSRFAADPHWLIYLPPTMSPCETSKKEGMLEHPIEAFEYFRTRGVGKVVCEQKHMGSRAVVIVCKDSQVAEKRFGVLDGTAGICYTRTGRHFFDDMQLEAELIDRVRKVLDKSGFWGDFNTDWVCLDCELMPWSAKAQKLLEEQYSAVGISGRVVLDEAVKLLKQASLNKTVSFDVSRQTSGKNADINELLQRFTERSEMMQKYVEAYRKYCWPVNSIDDLKLAPFHILATEGKVHSDKNHIWHMDTIAKYCTQDDSLIMATNHILVDVTDAESVDKGIKWWEDLTASGGEGMVVKPYDFIVKNGRELLQPAVKCRGREYLRIIYGPEYTMDENIERLRNRAVGKKRSLALREFSLGMEALERFVRNEPLYRVHECVFGVLALESEPVDPRL
# B3: enzyme (Streptomyces albidoflavus, UniProt K0J3J2); chain AAGGYVALGDSYSSGVGAGSYDSGSGDCRRTPKAYPALWAAANSPASFDFVACSGAVTSDVLNKQMGPLNSSTSLVSLTIGGNDAGFADVMTTCVLQSEANCIARVNTAKAFVESTLPGRLDSVYSQVRAKAPSANVVVLGYPRFYKLNGTCVAGLTEGERTAINGAADLLNSVISKRAADHGYAYGDIAAAFTGHEICSGDSWLHSVKWTGINDSYHPTAAGQSGGYLPVLNSKA
# B4: enzyme (Campylobacter jejuni, UniProt Q0P9V0); chain MIKSIPEWSEQEYLMLSLPHEKSDWNPYLEEILQSYKEFVKVVSEFQKVLLIAPKQSDFENFKDIKNVEFFKCDTNDTWIRDFGAIDIVENGRLKALDFTFNAWGNKFQSELDNAVNSKLFKEKFKEELKKVDFILEGGSIDFNGEGVMLTSSHCLLNENRNSHLNKTQIDTKLKEIFGLKQIIWLENGFIKGDDTDHHIDTLARFIDKNTIAHCICEDEEDEHYLPLQKMKEELKKTGFDLLELPIPKPLYYEERRLGATYANFVFINNALIVPFYKDKNDEIIAKRLSKALPNHKIIGVDARVFLRQNGSLHCSCQNRFKGLR
# B5: protein L361A (Streptomyces toyocaensis, UniProt Q8KLK7); chain MTTVLPPLEDTDGLWAALTEAAASVEKLLATLPEHGARSSAERAEIAAAHDAARALRVRFLDTHADAVYDRLTDHRRVHLRLAELVEAAATAFPGLVPTQQQLAVERSLPQAAKEGHEIDQGIFLRAVLRSPLAGPHLLDAMLRPTPRALELLPEFVRTGEVEMEAVHLERRDGVARLTMCRDDRLNAEDGQQVDDMETAVDLALLDPGVRVGLLRGGVMSHPRYRGKRVFSAGINLKYLSQGGISLVDFLMRRELGYIHKLVRGVLTNDDRPGWWHSPRIEKPWVAAVDGFAIGGGAQLLLVFDRVLASSDAYFSLPAAKEGIIPGAANLRLGRFAGPRVSRQVILEGRRIWAKEPEARALVDEVVEPDELDAAIERSLTRLDGDAVLANRRMLNLADESPDGFRAYMAEFALMQALRLYGHDVIDKVGRFGGRPPA
# B6: enzyme N249W (Thermobifida fusca, UniProt Q47RK4); chain MTDVYILDAVRTPFGRYGGALSGIRPDDLAAHVLRALAERSPGLDPAAVDDVFFGDANGAGEDNRNVARMAALLAGWPTSVPGVTLNRLCGSGMESVIAANRAIAVGDASLAVAGGVESMSRAPWVLPKPAQGFPTGHETLYSTTLGWRMVNPAMPEQWTVSLGESTEQVAATYGISRAEQDAFALRSHERAARAWAEGVFDAEITQIPGAELERDESIRETSAEKLAALKPAFRPDGTITAGNASPLWDGAAALLIGDAAAAERVGREPLARIVSRGVAAVDPDVFGIGPVQAAEIALRRAGIGWDDLSVVELNEAFAAQSLACLKLWPDLDPEIVNPNGGAIAIGHPLGASGARIVGTLAHELHRRGGGWGLAAICIGVGQGLAVVLHR
# B7: nitrilase Y142F (Rhodococcus rhodochrous, UniProt A4LA85); chain MVEYTNTFKVAAVQAQPVWFDAAKTVDKTVSIIAEAARNGCELVAFPEVFIPGYPYHIWVDSPLAGMAKFAVRYHENSLTMDSPHVQRLLDAARDHNIAVVVGISERDGGSLYMTQLIIDADGQLVARRRKLKPTHVERSVFGEGNGSDISVYDMPFARLGALNCWEHFQTLTKYAMYSMHEQVHVASWPGMSLYQPEVPAFGVDAQLTATRMYALEGQTFVVCTTQVVTPEAHEFFCENEEQRKLIGRGGGFARIIGPDGRDLATPLAEDEEGILYADIDLSAITLAKQAADPVGHYSRPDVLSLNFNQRRTTPVNTPLSTIHATHTFVPQFGALDGVRELNGADEQRALPSTHSDETDRATASI
# B8: protein Y24F (uncultured bacterium HF130_AEPn_1, UniProt D0E8I5); chain MSLSNSSKVSVLISLLEKSRDLDFIGEAINQLEHSLQCAYFAQRSGADNEMVLAALLHDLGHYCNDTSFEDMGGYGVWQHEKVGADYLRGLGFSERVACLIEGHVAAKRYLVSSKASYLKNLSDASRKTLEYQGGPMDEGERRLFEEREDFKDCLKIRAWDEKGKQTDLKVPGPEHYRKMMEEHLSENQN
# UniProt P22303, sequence (whole entry, looked up): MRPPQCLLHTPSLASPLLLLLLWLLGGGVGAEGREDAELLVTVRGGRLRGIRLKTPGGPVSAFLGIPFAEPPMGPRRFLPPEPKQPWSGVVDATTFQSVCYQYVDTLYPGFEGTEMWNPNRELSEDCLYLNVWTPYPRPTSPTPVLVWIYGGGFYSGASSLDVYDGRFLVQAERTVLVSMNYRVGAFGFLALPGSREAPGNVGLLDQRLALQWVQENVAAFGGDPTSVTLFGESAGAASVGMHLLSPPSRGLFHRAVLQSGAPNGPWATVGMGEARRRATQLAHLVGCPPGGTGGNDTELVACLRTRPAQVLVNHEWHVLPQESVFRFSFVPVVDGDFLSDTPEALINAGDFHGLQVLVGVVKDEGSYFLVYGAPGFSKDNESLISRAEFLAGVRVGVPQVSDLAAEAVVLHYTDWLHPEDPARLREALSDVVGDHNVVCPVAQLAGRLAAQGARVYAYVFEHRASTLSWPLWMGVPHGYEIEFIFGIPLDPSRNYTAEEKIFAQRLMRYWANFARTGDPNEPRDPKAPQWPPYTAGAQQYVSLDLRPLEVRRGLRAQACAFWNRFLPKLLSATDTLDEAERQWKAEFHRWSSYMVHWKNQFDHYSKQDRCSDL
# UniProt Q99042, sequence (whole entry, looked up): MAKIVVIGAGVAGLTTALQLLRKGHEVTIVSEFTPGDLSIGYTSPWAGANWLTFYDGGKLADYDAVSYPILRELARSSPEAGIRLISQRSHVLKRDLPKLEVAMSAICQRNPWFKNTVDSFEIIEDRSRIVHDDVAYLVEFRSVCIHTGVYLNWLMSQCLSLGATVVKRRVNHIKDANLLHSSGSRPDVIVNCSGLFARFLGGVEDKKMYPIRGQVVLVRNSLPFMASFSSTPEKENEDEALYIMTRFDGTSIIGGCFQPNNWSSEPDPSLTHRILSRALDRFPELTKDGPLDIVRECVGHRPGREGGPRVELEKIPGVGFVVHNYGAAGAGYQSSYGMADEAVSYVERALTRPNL
# UniProt Q9JLT4, sequence (whole entry, looked up): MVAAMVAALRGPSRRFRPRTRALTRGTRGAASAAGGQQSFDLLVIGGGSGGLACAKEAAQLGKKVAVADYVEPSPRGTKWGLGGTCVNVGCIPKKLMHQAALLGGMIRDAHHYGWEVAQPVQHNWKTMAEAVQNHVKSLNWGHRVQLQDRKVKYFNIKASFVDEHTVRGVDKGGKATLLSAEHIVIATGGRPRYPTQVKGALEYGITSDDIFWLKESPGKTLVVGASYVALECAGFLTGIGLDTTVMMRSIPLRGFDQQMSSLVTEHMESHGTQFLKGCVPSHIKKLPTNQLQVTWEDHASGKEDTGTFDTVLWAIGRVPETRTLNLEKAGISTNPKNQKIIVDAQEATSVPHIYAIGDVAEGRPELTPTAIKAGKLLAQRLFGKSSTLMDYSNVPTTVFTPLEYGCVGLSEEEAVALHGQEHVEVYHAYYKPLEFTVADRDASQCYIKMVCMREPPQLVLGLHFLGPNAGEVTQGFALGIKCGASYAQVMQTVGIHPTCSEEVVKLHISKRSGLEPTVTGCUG
Molecule,substrate,setting,Km
B1 (SLC10A2),C[C@H](CCC(=O)NCCS(=O)(=O)O)[C@H]1CC[C@H]2[C@@H]3[C@H](O)C[C@@H]4C[C@H](O)CC[C@]4(C)[C@H]3C[C@H](O)[C@]12C,"pH 6.8, 37 °C, not purified",4.84 µM
ω-transaminase A60V/E38Q/I154V/M128F/P9A/S87N/W58G (Pseudomonas jessenii),O=C1CCc2ccccc21,"pH 8, 56 °C, apparent, added: isopropylamine 1 M, PLP 0.05 mM",1600 µM
B2 (enzyme R237K),Nc1ncnc2c1ncn2[C@@H]1O[C@H](CO)[C@H]2OP(=O)(O)O[C@H]21,"pH 7.5, 45 °C",100000 µM
"ATIC (Cryptococcus neoformans, UniProt J9VJP1)",NC(=O)c1ncn([C@@H]2O[C@H](COP(=O)(O)O)[C@@H](O)[C@H]2O)c1N,"pH 7.5, 37 °C, KCl 25 mM, apparent, added: N10-formyl-tetrahydrofolate 0.1 mM",130 µM
"DAO1 (Trigonopsis variabilis, UniProt Q99042)",O=C1C(Cl)=CC(=Nc2ccc(O)cc2)C=C1Cl,"pH 8, 22 °C, varied electron acceptor, apparent, added: D-methionine 200 mM",31 µM
B3 (enzyme),CCCCCCCC/C=C\CCCCCCCC(=O)O[C@H](COC(=O)CCCCCCCCCCCCCCC)COP(=O)(O)O,"pH 7.2, 50 °C, apparent",2380 µM
"ACHE (Homo sapiens, UniProt P22303)",CC(=O)SCCC[N+](C)(C)C,"pH 7, 25 °C, apparent",330 µM
"enzyme (Mus musculus, UniProt Q9JLT4)",N#C[Se]O,,33 µM
B4 (enzyme),N=C(N)NCCCCN,"pH 7, 37 °C",70 µM
B5 (protein L361A),CC(C)(COP(=O)(O)OP(=O)(O)OC[C@H]1O[C@@H](n2cnc3c(N)ncnc32)[C@H](O)[C@@H]1OP(=O)(O)O)[C@@H](O)C(=O)NCCC(=O)NCCSC(=O)Cc1cc(O)cc(O)c1,"pH 7.5, 24 °C, added: O2",4.4 µM
MilB F17Y (Streptomyces rimofaciens),Nc1ccn([C@H]2C[C@H](O)[C@@H](COP(=O)(O)O)O2)c(=O)n1,"pH 7.5, 37 °C",1200 µM
"OXA-48 (Klebsiella pneumoniae, UniProt Q6XEC0)",CC(=O)OCC1=C(C(=O)O)N2C(=O)[C@@H](NC(=O)Cc3cccs3)[C@H]2SC1,"pH 7.2, 30 °C",140 µM
"protein (Rhodopseudomonas palustris, UniProt Q6N3R9)",CCCCCCCCOC(C)=O,"pH 8.3, NaCl 150 mM, no saturation, added: CaCl2 1 mM",1250 µM
"fcl (Campylobacter jejuni, UniProt Q0P8I6)",Nc1nc2c(ncn2[C@@H]2O[C@H](COP(=O)(O)OP(=O)(O)O[C@H]3O[C@@H]([C@H](O)CO)C(=O)[C@@H](O)[C@@H]3O)[C@@H](O)[C@H]2O)c(=O)[nH]1,"pH 7.5, 30 °C, apparent",121 µM
B6 (enzyme N249W),CC(=O)SCCNC(=O)CCNC(=O)[C@H](O)C(C)(C)COP(=O)(O)OP(=O)(O)OC[C@H]1O[C@@H](n2cnc3c(N)ncnc32)[C@H](O)[C@@H]1OP(=O)(O)O,"pH 7.4, 37 °C",1150 µM
B7 (nitrilase Y142F),Cc1cccc(C#N)c1,"pH 7.5, 25 °C",1190 µM
B8 (protein Y24F),NC[C@H](O)P(=O)(O)O,"pH 7, 25 °C, NaCl 150 mM, added: O2, Fe(II) 100 µM, ascorbate 100 µM",566 µM and 327 µM

# A few entries again:
Molecule,substrate,setting,Km
MilB F17Y (Streptomyces rimofaciens),Nc1ccn([C@H]2C[C@H](O)[C@@H](COP(=O)(O)O)O2)c(=O)n1,"pH 7.5, 37 °C",1200 µM
B1 (SLC10A2),C[C@H](CCC(=O)NCCS(=O)(=O)O)[C@H]1CC[C@H]2[C@@H]3[C@H](O)C[C@@H]4C[C@H](O)CC[C@]4(C)[C@H]3C[C@H](O)[C@]12C,"pH 6.8, 37 °C, not purified",4.84 µM
